Experimental data gathered from unrelated publications.
A part holds a random share of what one study measured. “And” joins repeats or separate records; there may be more than shown. Substitutions count along the parent as printed.

Series 1
Target: UDP-N-acetylglucosamine--peptide N-acetylglucosaminyltransferase 110 kDa subunit (OGT, Homo sapiens, UniProt O15294)
Sequence of UniProt O15294 (whole entry, looked up): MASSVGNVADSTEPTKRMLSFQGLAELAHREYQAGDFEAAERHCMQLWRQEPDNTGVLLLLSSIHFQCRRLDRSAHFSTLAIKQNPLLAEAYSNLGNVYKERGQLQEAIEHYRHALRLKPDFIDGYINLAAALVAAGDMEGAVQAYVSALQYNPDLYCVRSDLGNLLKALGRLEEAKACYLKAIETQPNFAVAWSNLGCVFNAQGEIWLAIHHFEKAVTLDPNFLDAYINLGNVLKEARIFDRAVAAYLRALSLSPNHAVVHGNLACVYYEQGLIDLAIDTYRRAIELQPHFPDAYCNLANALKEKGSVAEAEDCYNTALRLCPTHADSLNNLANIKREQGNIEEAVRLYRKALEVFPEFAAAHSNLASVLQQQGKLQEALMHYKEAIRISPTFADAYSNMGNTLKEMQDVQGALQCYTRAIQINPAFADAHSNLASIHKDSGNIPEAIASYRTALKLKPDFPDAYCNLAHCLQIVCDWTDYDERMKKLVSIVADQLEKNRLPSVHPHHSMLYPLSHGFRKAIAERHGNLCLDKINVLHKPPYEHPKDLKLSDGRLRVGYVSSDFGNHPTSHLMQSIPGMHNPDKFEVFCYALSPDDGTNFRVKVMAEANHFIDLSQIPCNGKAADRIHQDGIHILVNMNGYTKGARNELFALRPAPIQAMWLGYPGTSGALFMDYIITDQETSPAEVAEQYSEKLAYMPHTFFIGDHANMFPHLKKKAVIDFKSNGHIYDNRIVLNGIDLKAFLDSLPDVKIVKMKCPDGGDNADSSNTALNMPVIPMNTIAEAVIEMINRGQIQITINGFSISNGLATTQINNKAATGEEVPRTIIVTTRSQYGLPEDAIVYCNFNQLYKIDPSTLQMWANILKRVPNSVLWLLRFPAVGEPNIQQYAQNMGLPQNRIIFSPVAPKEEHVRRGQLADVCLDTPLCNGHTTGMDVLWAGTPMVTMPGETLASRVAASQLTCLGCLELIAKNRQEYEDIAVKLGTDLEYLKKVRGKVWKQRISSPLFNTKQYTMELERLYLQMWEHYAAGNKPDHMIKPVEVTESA
Observed: binding
Method: phage display NGS
Molecule type: peptide
Tested at: concentration not given
Setting: normalized abundance
Relative to: input library
Under “enrichment fold change”, `RHDPMSFQPVYQIKY` is recorded as 68.6.
Under “enrichment fold change”, `ASPSYVPHYQMVYKI` is recorded as 13.4.
Under “enrichment fold change”, `GDQSYRPIYPIQYYK` is recorded as 13.5.

Series 2
Target: Interferon regulatory factor 7, full length, phosphomimetic (IRF7, Homo sapiens, UniProt Q92985, residues 1-503, S471D/S472D/S475D/S476D/S477D/S483D/S484D/S487D)
Method: protein-binding microarray
Molecule type: double-stranded DNA, one strand shown
Medium: in vitro
Tested at: 2200 nM top
Setting: 60-bp whole probe
With: salmon DNA 0.4 mg/ml
Relative to: random background probes
Direction: higher = stronger binding
Shared flanks, not repeated: GCCTAGCAC … GTCTTGATTCGCTTGACGCTGCTG
Residues (chain): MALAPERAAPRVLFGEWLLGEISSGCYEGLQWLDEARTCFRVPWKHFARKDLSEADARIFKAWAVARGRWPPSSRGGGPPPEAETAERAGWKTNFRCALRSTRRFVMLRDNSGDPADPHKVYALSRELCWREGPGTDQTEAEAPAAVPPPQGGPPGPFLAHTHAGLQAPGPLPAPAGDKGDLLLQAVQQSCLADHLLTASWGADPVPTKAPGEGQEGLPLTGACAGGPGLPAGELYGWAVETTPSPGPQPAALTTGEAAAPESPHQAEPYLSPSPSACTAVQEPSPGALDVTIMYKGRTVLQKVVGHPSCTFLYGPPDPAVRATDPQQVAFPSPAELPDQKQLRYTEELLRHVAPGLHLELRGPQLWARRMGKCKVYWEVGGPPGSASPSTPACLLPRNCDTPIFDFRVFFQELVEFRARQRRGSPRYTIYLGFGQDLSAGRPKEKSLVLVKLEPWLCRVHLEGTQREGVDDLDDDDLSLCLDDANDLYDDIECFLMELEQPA
`TCATCTCTGAAGACTCTCACTGTGCTA`: “fitted relative affinity” 0.487 z-score.
`TTAGGCTTCGGTCTCGGTTAGTGCTAG` — result for “fitted relative affinity”: 0.388 z-score.
Under “fitted relative affinity”, `TTGGCTTCCTCTTTCTCTGCGTGCTAG` is recorded as 1.92 z-score.
`GACGGATTCCTTTTCCTGACGTGCTAG` — result for “fitted relative affinity”: 1.97 z-score.
`GACGGACTGGGACAGGGGACGTGCTAG` — result for “fitted relative affinity”: -0.949 z-score.
Under “fitted relative affinity”, `TCAGATATAGGATAACGAACTGTGCTA` is recorded as -0.386 z-score.
Under “fitted relative affinity”, `GACGGTATCGACTTTCGGGATGTGCTA` is recorded as 4.05 z-score.
For `GACGAACTGAGTATTGAGACGTGCTAG`, “fitted relative affinity” read -0.125 z-score.

Series 3
Target: Ras GTPase-activating protein-binding protein 1, C-terminal RGG region (G3BP1, Homo sapiens, UniProt Q13283)
Sequence of UniProt Q13283 (whole entry, looked up): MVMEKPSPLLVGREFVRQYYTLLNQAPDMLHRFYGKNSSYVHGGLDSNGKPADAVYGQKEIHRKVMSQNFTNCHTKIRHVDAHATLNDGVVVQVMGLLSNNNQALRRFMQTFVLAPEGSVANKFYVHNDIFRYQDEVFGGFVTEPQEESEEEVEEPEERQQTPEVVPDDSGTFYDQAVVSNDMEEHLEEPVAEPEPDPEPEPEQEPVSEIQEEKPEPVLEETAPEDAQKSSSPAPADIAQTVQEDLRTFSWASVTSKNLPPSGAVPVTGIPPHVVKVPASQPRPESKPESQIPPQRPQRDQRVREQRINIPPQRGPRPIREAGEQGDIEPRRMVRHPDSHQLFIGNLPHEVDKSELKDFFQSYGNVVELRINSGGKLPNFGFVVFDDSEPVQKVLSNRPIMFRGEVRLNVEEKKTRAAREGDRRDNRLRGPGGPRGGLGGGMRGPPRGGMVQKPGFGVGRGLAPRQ
Method: RNA Bind-n-Seq
Molecule type: RNA
Medium: in vitro
Tested at: 1 µM
Setting: whole 134-nt RNA, ends assumed
With: 150 mM KCl
Relative to: input library
Direction: higher = stronger binding
`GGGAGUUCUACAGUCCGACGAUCGCAGGAAGUAAAAACAAAUGGAAAUAAAUCGGAUAGUGGCAGGGGUGGGGGUUGCUAAGGAAAGGGUGGGAUGGGAGUGGGUAAAGAGUUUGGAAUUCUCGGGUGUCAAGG` has a log2 enrichment of 2.06.
With `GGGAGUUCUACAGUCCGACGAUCUAACUUUAGAGGAGGAUCUGAUGGAUAUGGCAGUGGGCGUGGAUUUGGGGAUGGCUAUAAUGGGUAUGGAGGAGGACCUGGAGGUGGCAAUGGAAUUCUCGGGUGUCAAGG` the log2 enrichment was -0.147.
`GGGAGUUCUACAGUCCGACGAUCGCAGGAAGUAAAAACAAAUGGAAAUGCUUCGGAUAGUGGCAGGGGUGGGGGUUGCUAAGGAAAGAGUGGGAUGGGAGUGGGUAAAGAGUUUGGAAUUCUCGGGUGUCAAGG` has a log2 enrichment of 1.1.
For `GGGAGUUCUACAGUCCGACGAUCCUGCGCGCGGAUUUCCCUCUCUGAGGAAGUUUAUCCUUGUGCCUUCUGGAGGAUUUCUCUCUAGCUCGACUCACUCUGGACUGACUCGCUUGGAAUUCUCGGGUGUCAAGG`, the log2 enrichment was -0.981.
The log2 enrichment of `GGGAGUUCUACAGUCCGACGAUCUCCUGUGCUACACAUCGUAUGUACCGAAUCGGGUUUUUUUGGGUUUUUUUGGGUUUGGGAAAGUAUUAUGUUACGCCGUUCGGAUCUGCAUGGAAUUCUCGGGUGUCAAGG` is reported as -0.257.
The log2 enrichment of `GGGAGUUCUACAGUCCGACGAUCAAGUCCUGUGCUACACAUCGUAUGUACCGAAUCGGGUUUUUGGGAAAAAGGGUGGGAAAGUAUUAUGUUACGCCGUUCGGAUCUGCACUUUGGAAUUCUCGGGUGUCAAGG` is reported as 1.06.
For `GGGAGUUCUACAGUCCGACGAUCCCUCAAGUCCUGUGCUACACAUCGUAUGUACCGAAUCGGGAGGGGAGGGAGGGAAAGUAUUAUGUUACGCCGUUCGGAUCUGCACUUCCAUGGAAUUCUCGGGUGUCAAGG`, the log2 enrichment was 2.58.
The log2 enrichment of `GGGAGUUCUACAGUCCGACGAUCAGGGAGGUGGAUUUUGUUUAUUUUUUUAGCUCAUUUCCAGGGGUGGGAAUUUUUUUUUAAUAUGUGUCAUGAAUAAAGUUGUUUUUGAAAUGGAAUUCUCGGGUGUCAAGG` is reported as 3.48.

Series 4
Target: Sox, HMG box (Pigoraptor chileana)
Method: Spec-seq
Molecule type: double-stranded DNA, one strand shown
Medium: in vitro
Tested at: not given
Setting: whole probe, mean of replicates
Relative to: not given
Direction: lower = stronger binding
Shared flanks, not repeated: GAGTCGTCTCGTCAGCAC … CCGTAGAGCACTCAGGTC
Target sequence (chain): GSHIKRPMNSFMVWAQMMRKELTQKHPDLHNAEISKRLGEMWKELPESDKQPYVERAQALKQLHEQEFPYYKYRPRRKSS
For `CCTGGTT`, “relative binding energy” read 0.64 ln ratio.
For `GCAGGTT`, “relative binding energy” read 1.24 ln ratio.
`GGCTGTT` — result for “relative binding energy”: -0.302 ln ratio.
`CATCGAC` — result for “relative binding energy”: 0.446 ln ratio.
`ATCGGTT`: “relative binding energy” 0.442 ln ratio.
For `CATGCCA`, “relative binding energy” read 0.662 ln ratio.
For `CATACGG`, “relative binding energy” read 0.00931 ln ratio.
`ACTAGTT` — result for “relative binding energy”: -0.43 ln ratio.

Series 5
Compound: CC(C)S(=O)(=O)c1cc2c(Nc3ccc4sc(C5CCCC5)nc4c3)ccnc2cc1OCCO
Method: CCK-8
For L929 RIPK3-/- reexpressing RIPK3 K51A/R69H; 50 µM, with: zVAD: survival read 26.7% and 23.6% and 25.4% and 25.2% and 25.7%.
It gave 81.5% and 81.4% and 80.7% and 76.1% and 83.3% for survival (L929 RIPK3-/- reexpressing RIPK3 K51A; 6.25 µM).
It gave 89% and 88% and 85.9% and 93% for survival (L929 RIPK3-/- reexpressing RIPK3 K51A; 3.125 µM).

Series 6
Target: CCND2, cyclin fold, Cln2 fusion (human)
Method: yeast growth competition, sequencing
Medium: yeast
Setting: weak parent motif
Relative to: not given
Direction: higher = stronger binding
Parent: viral docking peptide; KGVKRKLFAEDSS
`K6N` — result for “normalised enrichment score”: -0.0327.
Under “normalised enrichment score”, `A9G` is recorded as 0.114.
`K4Q`: “normalised enrichment score” 0.252.
Under “normalised enrichment score”, `R5V` is recorded as 0.0299.
`S12W`: “normalised enrichment score” 0.233.
Under “normalised enrichment score”, `A9D` is recorded as 0.292.
`K6Q` — result for “normalised enrichment score”: 0.279.
`L7T` — result for “normalised enrichment score”: 0.0555.
Under “normalised enrichment score”, `R5E` is recorded as 0.0902.
For `S12H`, “normalised enrichment score” read -0.245.
Under “normalised enrichment score”, `K6Y` is recorded as -0.358.
Under “normalised enrichment score”, `K4V` is recorded as -0.422.
For `R5G`, “normalised enrichment score” read -0.27.
Under “normalised enrichment score”, `A9P` is recorded as -0.0715.
Under “normalised enrichment score”, `F8D` is recorded as -0.114.
`K4P` — result for “normalised enrichment score”: -0.181.
For `K4T`, “normalised enrichment score” read -0.23.
`D11I` — result for “normalised enrichment score”: -0.0634.
For `E10S`, “normalised enrichment score” read -0.138.
For `S12P`, “normalised enrichment score” read 0.542.
Under “normalised enrichment score”, `G2M` is recorded as 0.391.
`S12A` — result for “normalised enrichment score”: 0.335.
`G2P` — result for “normalised enrichment score”: 0.523.
Under “normalised enrichment score”, `F8V` is recorded as 0.134.
Under “normalised enrichment score”, `D11S` is recorded as 0.398.

Other studies, line by line
For `PhoQ, residues 284 288 289 292 302 303 TTSMTC`, the fold induction was 20.3 (PhoP, residues 12 14 15 18 19 GQAIL (Escherichia coli, UniProt P23836); Sort-seq, measured: YFP reporter; E. coli; PhoQ-PhoP variant library, with: 10 µM Mg2+; relative to: high Mg2+ state, higher = stronger signaling).

For quick reference, copied from above (series 3):
For `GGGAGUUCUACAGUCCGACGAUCCUGCGCGCGGAUUUCCCUCUCUGAGGAAGUUUAUCCUUGUGCCUUCUGGAGGAUUUCUCUCUAGCUCGACUCACUCUGGACUGACUCGCUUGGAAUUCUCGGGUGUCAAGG`, the log2 enrichment was -0.981.
With `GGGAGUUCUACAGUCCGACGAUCUAACUUUAGAGGAGGAUCUGAUGGAUAUGGCAGUGGGCGUGGAUUUGGGGAUGGCUAUAAUGGGUAUGGAGGAGGACCUGGAGGUGGCAAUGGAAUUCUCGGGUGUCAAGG` the log2 enrichment was -0.147.
`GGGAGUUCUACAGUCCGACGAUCGCAGGAAGUAAAAACAAAUGGAAAUAAAUCGGAUAGUGGCAGGGGUGGGGGUUGCUAAGGAAAGGGUGGGAUGGGAGUGGGUAAAGAGUUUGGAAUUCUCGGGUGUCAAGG` has a log2 enrichment of 2.06.
The log2 enrichment of `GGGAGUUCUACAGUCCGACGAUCAAGUCCUGUGCUACACAUCGUAUGUACCGAAUCGGGUUUUUGGGAAAAAGGGUGGGAAAGUAUUAUGUUACGCCGUUCGGAUCUGCACUUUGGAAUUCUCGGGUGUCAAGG` is reported as 1.06.
For `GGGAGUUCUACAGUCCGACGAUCCCUCAAGUCCUGUGCUACACAUCGUAUGUACCGAAUCGGGAGGGGAGGGAGGGAAAGUAUUAUGUUACGCCGUUCGGAUCUGCACUUCCAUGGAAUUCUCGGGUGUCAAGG`, the log2 enrichment was 2.58.
The log2 enrichment of `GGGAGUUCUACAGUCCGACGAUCUCCUGUGCUACACAUCGUAUGUACCGAAUCGGGUUUUUUUGGGUUUUUUUGGGUUUGGGAAAGUAUUAUGUUACGCCGUUCGGAUCUGCAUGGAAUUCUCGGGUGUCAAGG` is reported as -0.257.
`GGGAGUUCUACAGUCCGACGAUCGCAGGAAGUAAAAACAAAUGGAAAUGCUUCGGAUAGUGGCAGGGGUGGGGGUUGCUAAGGAAAGAGUGGGAUGGGAGUGGGUAAAGAGUUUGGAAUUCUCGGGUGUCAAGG` has a log2 enrichment of 1.1.
The log2 enrichment of `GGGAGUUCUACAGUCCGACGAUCAGGGAGGUGGAUUUUGUUUAUUUUUUUAGCUCAUUUCCAGGGGUGGGAAUUUUUUUUUAAUAUGUGUCAUGAAUAAAGUUGUUUUUGAAAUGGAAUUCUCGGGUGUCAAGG` is reported as 3.48.
